{"data": "Published values of several laboratories", "note": "Each numbered part is a random draw from the data of one study; scales do not carry over between parts."}
{"data": "Study 1", "target": "RING finger protein unkempt homolog, zinc fingers 1-6, GST-SBP tag (UNK, Homo sapiens, UniProt Q9C0B0, residues 30-357)", "technique": "RNA Bind-n-Seq", "form": "RNA", "medium": "in vitro", "concentration": "not given", "notes": "RNA with constant flanks, human and mouse sites, ends assumed", "baseline": "input RNA pool", "reading": "higher = stronger binding", "constant ends, left off below": "GGGAGUUCUACAGUCCGACGAUC … CAACAGAGGAUUGAGCAUCA", "sequence of UniProt Q9C0B0 (30-357, looked up)": "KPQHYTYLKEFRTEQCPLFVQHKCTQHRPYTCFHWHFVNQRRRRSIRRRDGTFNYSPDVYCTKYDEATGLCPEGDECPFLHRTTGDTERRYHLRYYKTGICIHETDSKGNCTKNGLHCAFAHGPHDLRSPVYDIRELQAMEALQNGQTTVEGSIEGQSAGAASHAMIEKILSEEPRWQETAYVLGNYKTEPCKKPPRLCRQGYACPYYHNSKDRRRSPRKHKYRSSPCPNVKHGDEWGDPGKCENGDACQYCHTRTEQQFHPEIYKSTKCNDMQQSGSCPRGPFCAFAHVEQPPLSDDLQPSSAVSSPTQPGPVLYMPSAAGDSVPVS"}
{"Oligonucleotide": "ACUGACCAAUGCACCAAAUGAAUACUAAAAUGCACUUUAGAUUUGCACUUGCACUUCUGAUGGCGUUUUUCAGCCACGAUGUCCUGGCUAAGAAUCUGAAAUACAGGAUUUAUGAGGAGC", "bound/input enrichment": "0.232 ratio"}
{"Oligonucleotide": "AAUCAGGCAAAGAAAGGUAGUGCAAGUUGUGGGACCAGUUUUCGAGGAACAGUUGGACGGACUAGAGAUUACACUGUUUUACAUCCAUCUUGCUUGUCAGUGUGUAAUGUUACCAUCCAG", "bound/input enrichment": "0.192 ratio"}
{"Oligonucleotide": "UGUAUUGGUCGGUGGUCCUGCCCCUAAAGUCAAGCCCCUACAUCAGUUUUACAGUAUAAAUACUCGUACUACCUUAUAAGGAAGCACUUAGUGGACUCCUUAAAGUUCCAUUUGCUAAUG", "bound/input enrichment": "0.114 ratio"}
{"Oligonucleotide": "UUAGUAUCCAAUUUCGAUCAGCAGCAGCUUGCUAACUUCUGCAGGAUCCUGGCUGUCACCAUUUCAGAGAUGGACACGGGGAAUGACGACAAACACACGCUUCUUGCCAAAAAUGCUCAG", "bound/input enrichment": "0.638 ratio"}
{"Oligonucleotide": "CGUCUUCUGUCUGCCUUCCCUGUCUCCCUAACUCCCCCUUCCUUCCCAUUGUCUUUUUGGUAGGUUGGAUUCUGGGGACUAAACUGCAGUUCCUCAUAAAAAUCCCCAUUCCUACCCUUU", "bound/input enrichment": "0.552 ratio"}
{"Oligonucleotide": "UCUGGAGUUCUUAAUGAUAGUUUGUCUGGUGGAAUGCAGUUGCUUCCAGAUCCUUUAUAUUCUCUUCCUACUGAUAAUACUUACCUUUUAACAAUAACUUCCACUGAUAAUGGCAGAAUU", "bound/input enrichment": "0.772 ratio"}
{"Oligonucleotide": "UAGUAAUGAAACCUGGAGGUCUGGGAAGUUGUGAAUUCCUAAAGUGACACUGUUGAUAAGCUGCUGAUGCCGUUGUCUGGCAGGUGGAAGGUGCAGCGGUCCUGUGAAUAUUCAGGAACU", "bound/input enrichment": "0.202 ratio"}
{"Oligonucleotide": "GACUAAGAGAACACCCAAACAUUUCCAAACUGGACGCUUGUGCAGAAAAUGUCCAUAACCGCAUGUGGCCUUGAGGACUCGGGCAAGGACAAGCACAUGUAUACUCGGAGAGAGCAGAAA", "bound/input enrichment": "0.135 ratio"}
{"data": "Study 2", "target": "Histone acetyltransferase KAT6A, winged helix 1, GST fusion (KAT6A, Homo sapiens, UniProt Q92794, residues 1-85)", "technique": "protein binding microarray", "form": "double-stranded DNA, one strand shown", "medium": "in vitro", "concentration": "not given", "notes": "8-mer, flanks averaged, mean of 2 arrays, mostly near background", "baseline": "not given", "reading": "higher = stronger binding", "Construct (chain)": "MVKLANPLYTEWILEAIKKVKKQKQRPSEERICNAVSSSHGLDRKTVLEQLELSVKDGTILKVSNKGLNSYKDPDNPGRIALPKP"}
{"Oligonucleotide": "CTTTGCAA", "E-score": -0.168}
{"Oligonucleotide": "TATCTTAA", "E-score": -0.175}
{"Oligonucleotide": "GTGCCAAC", "E-score": -0.17}
{"Oligonucleotide": "CCGTGTCG", "E-score": 0.323}
{"Oligonucleotide": "AAAGGAGT", "E-score": -0.0438}
{"Oligonucleotide": "TCTGCTCA", "E-score": -0.212}
{"Oligonucleotide": "AAGTCGAT", "E-score": -0.0886}
{"Oligonucleotide": "TAGTTTGA", "E-score": -0.104}
{"Oligonucleotide": "CGGTTTTC", "E-score": 0.144}
{"Oligonucleotide": "GCGCTTAA", "E-score": 0.27}
{"Oligonucleotide": "CAAATCAG", "E-score": -0.24}
{"Oligonucleotide": "CGACGGTA", "E-score": 0.381}
{"Oligonucleotide": "GGCACTAA", "E-score": -0.0577}
{"Oligonucleotide": "CGATCGCA", "E-score": 0.0483}
{"Oligonucleotide": "TCCCTCGA", "E-score": -0.00688}
{"Oligonucleotide": "CAGCGGCA", "E-score": 0.285}
{"Oligonucleotide": "AATAACGA", "E-score": -0.178}
{"Oligonucleotide": "GGATAACA", "E-score": -0.115}
{"Oligonucleotide": "ACGGTAAG", "E-score": 0.201}
{"Oligonucleotide": "CGTAGACA", "E-score": 0.0601}
{"Oligonucleotide": "TCGTAAGA", "E-score": 0.00929}
{"Oligonucleotide": "AGATTACC", "E-score": 0.00991}
{"Oligonucleotide": "TCTGACAA", "E-score": -0.197}
{"Oligonucleotide": "ACCTATGA", "E-score": -0.138}
{"Oligonucleotide": "AAACAGCC", "E-score": -0.18}
{"data": "Study 3", "target": "RNA binding protein fox-1 homolog 2, RRM domain, GST-SBP tag (RBFOX2, Homo sapiens, UniProt O43251-10, residues 100-194)", "technique": "RNA Bind-n-Seq", "form": "RNA", "medium": "in vitro", "concentration": "365 nM", "notes": "natural RNA segment, single round, ends assumed", "baseline": "no-protein control", "reading": "higher = stronger binding", "constant ends, left off below": "GGGAGUUCUACAGUCCGACGAUC … UGGAAUUCUCGGGUGCCAA", "Construct (chain)": "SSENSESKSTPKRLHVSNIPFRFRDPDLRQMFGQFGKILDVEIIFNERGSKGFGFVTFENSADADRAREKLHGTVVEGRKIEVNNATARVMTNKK"}
{"Oligonucleotide": "UGAGACUUCCCGCCGGCAGCUGUGCGCACCAAAGACUCGGGAGAACUGGAAAGGCUGUCUGGGGUCUUCUGACUGCAGGGGAAGGAUGUACUUUCCAAACAAAUGAUACA", "RBNS enrichment (R)": 0.456}
{"Oligonucleotide": "UACCCUCUUUAACAACAUAAAUUCAUAGCUAAAGAAAAACUGCAUGUGCAAAUAAUACCAUAUUCAUUUUUUAUUUAACAUGGGGAUGGAAUGGGGAUAGCAUACAUUUU", "RBNS enrichment (R)": 2.07}
{"Oligonucleotide": "AGGCACAGAUGGGGCCUUGAAACGCUUUGUCAUGCUUCUUCAGUACCAUGGAUUUGAAAUGAACUCAUCCUUGCUGUGAGCAUCCAGGAGCCCUUGAGAAGUUUAUCUAU", "RBNS enrichment (R)": 0.199}
{"Oligonucleotide": "AAAAAAGGAAAAGGAAAAAGCAUGACAUUGUGUAUCGAUUUUUUGUUGUUGACCAAAAUCACACACAUGGAAACAUGUAAUUCAACAGAGUGGGAAAGCUAGCAGAUUCU", "RBNS enrichment (R)": 4.01}
{"Oligonucleotide": "AGCUGUGUUAAGGCGCUGCUUCAGAUGCAAGUUCACCUGGAAAUACUGGUCAGCGGGCAGCACGUCAAGGUCACUUAAGCCCACUUUUAACUGCAGGUCAUCCUCGCAUC", "RBNS enrichment (R)": 1.34}
{"Oligonucleotide": "CAGCCAUAGAGAUUUUAAUUAGCCCAACUAGAAGCCUAGUGUGUGUGCUUUCUUAAUGUGUGUGCCAAUGGUGGAUCUUUGCUACUGAAUGUGUUUGAACAUGUUUUGAG", "RBNS enrichment (R)": 3.6}
{"Oligonucleotide": "ACAACUAGAACACUCUGCCUUGGUCUCCUUAUCCAGUGCUCACCCACAGUAUGAAAUGGAUGCUUCCUCUGCCACCUGUAUACAGGGGCUUUUACUUUGCACACCUUCAU", "RBNS enrichment (R)": 0.315}
{"Oligonucleotide": "AUUCUUCAUUGGAUGUUUAAAGCAUUUACUCCAUUGUUAAGGUUGGCAUCAUAUAGUCAGUUACUGACAUGGCAUAAGACAGCAUGAAACUUUACCACAUUUAUAAAUAU", "RBNS enrichment (R)": 12.8}
{"data": "Study 4", "target": "Ras GTPase-activating protein-binding protein 1, C-terminal RGG region (G3BP1, Homo sapiens, UniProt Q13283)", "technique": "RNA Bind-n-Seq", "form": "RNA", "medium": "in vitro", "concentration": "1 µM", "notes": "whole 134-nt RNA, ends assumed", "together with": "150 mM KCl", "baseline": "input library", "reading": "higher = stronger binding", "constant ends, left off below": "GGGAGUUCUACAGUCCGACGAUC … UGGAAUUCUCGGGUGUCAAGG", "sequence of UniProt Q13283 (whole entry, looked up)": "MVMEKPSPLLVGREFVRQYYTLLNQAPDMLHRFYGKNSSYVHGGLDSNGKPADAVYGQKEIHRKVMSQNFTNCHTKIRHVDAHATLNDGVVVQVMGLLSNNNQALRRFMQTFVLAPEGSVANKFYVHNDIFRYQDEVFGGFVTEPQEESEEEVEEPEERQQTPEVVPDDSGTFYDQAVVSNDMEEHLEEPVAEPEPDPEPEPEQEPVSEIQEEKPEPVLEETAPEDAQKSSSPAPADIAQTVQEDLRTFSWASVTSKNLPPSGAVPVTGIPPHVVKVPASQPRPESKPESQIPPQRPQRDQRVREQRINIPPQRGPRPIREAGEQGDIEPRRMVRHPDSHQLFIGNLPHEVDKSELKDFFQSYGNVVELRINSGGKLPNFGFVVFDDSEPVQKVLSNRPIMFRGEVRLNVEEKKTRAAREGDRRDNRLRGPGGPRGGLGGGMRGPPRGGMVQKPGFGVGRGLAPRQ"}
{"Oligonucleotide": "CCUGUGCUACACAUCGUAUGUACCGAAUCGGAAAAAAAGGGAAAAAAAGGAAAAAAAGGGGAAAGUAUUAUGUUACGCCGUUCGGAUCUG", "log2 enrichment": -1.81}
{"Oligonucleotide": "AAGUCCUGUGCUACACAUCGUAUGUACCGAAUCGGUUUUGGGUUUUGGUUUUGGGGAAAGUAUUAUGUUACGCCGUUCGGAUCUGCACUU", "log2 enrichment": -1.5}
{"Oligonucleotide": "UGGCCCUGGUGGCAUGCGGGGAGGAAGAGGUGGCCUCAUGGAUCGUGGUGGUCCCGGUGGAAUGUUCAGAGGUGGCCGUCGUGGAGACAG", "log2 enrichment": 2.42}
{"Oligonucleotide": "UGGCCCUGGUGGCAUGCGGGGAGGAAGAGGUGGCCACAUGGAUCGUGGUGGUCCCGGUGGAAUGUUCAGAGGUGGCCGUGGUGGAGACAG", "log2 enrichment": 2.44}
{"Oligonucleotide": "UCCUGUGCUACACAUCGUAUGUACCGAAUCGGGGAAAAAAAGGGGUUUUUGGGGUGGGGAAAGUAUUAUGUUACGCCGUUCGGAUCUGCA", "log2 enrichment": 1.39}
{"Oligonucleotide": "ACCAUGCAGAUGGGCAUCUUUGGGAAGUGGGGCAAGGGGGGGAUAGGGAGGGGGGUAACACUUUGGGAACAGGUGGUCCCAGGUCGUUUC", "log2 enrichment": -0.947}
{"Oligonucleotide": "UGGGAGGUGGAUUUUGUUUAUUUUUUUAGCUCAUUUCCUGGGGUGGGAAUUUUUUUUUAAUAUGUGUCAUGAAUAAAGUUGUUUUUGAAA", "log2 enrichment": 3.62}
{"Oligonucleotide": "CUCAAGUCCUGUGCUACACAUCGUAUGUACCGAAUCGGGUGGGAAAGGGUGGGAAAGUAUUAUGUUACGCCGUUCGGAUCUGCACUUCCA", "log2 enrichment": 1.68}
{"Oligonucleotide": "UCAAGUCCUGUGCUACACAUCGUAUGUACCGAAUCGGAAAGGAAAGGGGAAAGGGAAAGUAUUAUGUUACGCCGUUCGGAUCUGCACUUC", "log2 enrichment": -1.59}
{"note": "Excerpt of the above (study 2):"}
{"Oligonucleotide": "TCTGACAA", "E-score": -0.197}
{"Oligonucleotide": "ACCTATGA", "E-score": -0.138}
{"Oligonucleotide": "AAACAGCC", "E-score": -0.18}
